Published values of several laboratories.
Parts stem from different laboratories: compare values within a part only.

Set 1 — technique: RNA Bind-n-Seq; form: RNA; medium: in vitro; tested at: 200 nM; notes: whole 134-nt RNA, ends assumed; together with: 150 mM LiCl; relative to: input library; direction: higher = stronger binding; each molecule: 7-deaza-guanosine replaces G
Target: Fragile X messenger ribonucleoprotein 1, C-terminal low-complexity region (Fmr1, Mus musculus, UniProt P35922)
All sequences stand within: GGGAGUUCUACAGUCCGACGAUC … UGGAAUUCUCGGGUGUCAAGG
Strand | log2 enrichment
CCUGUGCUACACAUCGUAUGUACCGAAUCGGGGAAAAAGGGGAAAGGGGUUUUUUUGGGGAAAGUAUUAUGUUACGCCGUUCGGAUCUGC | 0.543
UCAAGUCCUGUGCUACACAUCGUAUGUACCGAAUCGGGGAAGGGAAGGGGAAGGAAAGUAUUAUGUUACGCCGUUCGGAUCUGCACUUCC | -1.05
UGGCCCUCGUGGCAUGCGGGGAGGAAGAGGUGGCCUCAUGGAUCGUGGUGGUCCCGGUGGAAUGUUCAGAGGUGGCCGUGGUGGAGACAG | -0.524
CUCAAGUCCUGUGCUACACAUCGUAUGUACCGAAUCGGGAAGGGAAGGGAAGGGAAAGUAUUAUGUUACGCCGUUCGGAUCUGCACUUCC | -0.0627
UAACUUUAGAGGAGGAUCUGAUGGAUAUGGCAGUGGACGUGGAUUUGGGGAUGGCUAUAAUGGGUAUGGAGGAGGACCUGGAAGUGGCAA | 0.229
AAGUCCUGUGCUACACAUCGUAUGUACCGAAUCGGGCCCCCGGCCCCCGGCCCCCGGAAAGUAUUAUGUUACGCCGUUCGGAUCUGCACU | -0.0314
CUCAAGUCCUGUGCUACACAUCGUAUGUACCGAAUCGGGGUUGGUUGGGGUUGGAAAGUAUUAUGUUACGCCGUUCGGAUCUGCACUUCC | -0.532
GUCCUGUGCUACACAUCGUAUGUACCGAAUCGGGUUUUUUUGGGAAAAAAAGGGAGGGAAAGUAUUAUGUUACGCCGUUCGGAUCUGCAC | -1.97
UAACUUUAGAGGAGGAUCUGAUGGAUAUGGCAGUGGACGUGGAUUUGUGGAUGGCUAUAAUGGGUAUGGAGGAGGACCUGGAGGUGGCAA | 0.847
GCAGGAAGUAAAAACAAAUGGAAAUGCUUCGGAUAGUGGCAGGGAUGGGGGUUGCUAAGGAAAGGGUGGGAUGGGAGUGGGUAAAGAGUU | 1.63
CUCAAGUCCUGUGCUACACAUCGUAUGUACCGAAUCGGUUUGGUUUGGUUUGGGAAAGUAUUAUGUUACGCCGUUCGGAUCUGCACUUCC | -0.529

Set 2 — technique: RNA Bind-n-Seq; form: RNA; medium: in vitro; tested at: 20 nM; notes: 6-mer, flanks averaged, single round; together with: 150 mM KCl; relative to: input library; direction: higher = stronger binding
Target: TAR DNA-binding protein 43, full length, His tag (TARDBP, Homo sapiens, UniProt Q13148, residues 1-414)
Strand | 6-mer enrichment (R)
AAAAGA | 0.67
UGUUGA | 0.826
ACGGAG | 1.62
GCUCAC | 0.659
GCUUUC | 0.598
AAUACA | 0.649
AUUGGC | 0.757
GUAUCU | 0.603
GGGGCU | 3.75
UUUUAA | 0.682
GACUCG | 0.873
CUGAUC | 0.586
UCGCCU | 0.614
UUAUGA | 0.668
GAUCGC | 0.842
AUCUCC | 0.572
CGGAUA | 0.792
UCCGAG | 0.847
UAAACA | 0.607
GAGACC | 0.88
UUCGCG | 0.811
GGACAU | 0.998

Set 3 — technique: RNAcompete; form: RNA; medium: in vitro; tested at: 20 nM; notes: 7-mer, probes averaged, single round; relative to: mean of 7-mers; direction: higher = stronger binding
Target: PABPC1L2, full length, GST fusion (mouse, UniProt A0ABA7IW68)
Target sequence (chain): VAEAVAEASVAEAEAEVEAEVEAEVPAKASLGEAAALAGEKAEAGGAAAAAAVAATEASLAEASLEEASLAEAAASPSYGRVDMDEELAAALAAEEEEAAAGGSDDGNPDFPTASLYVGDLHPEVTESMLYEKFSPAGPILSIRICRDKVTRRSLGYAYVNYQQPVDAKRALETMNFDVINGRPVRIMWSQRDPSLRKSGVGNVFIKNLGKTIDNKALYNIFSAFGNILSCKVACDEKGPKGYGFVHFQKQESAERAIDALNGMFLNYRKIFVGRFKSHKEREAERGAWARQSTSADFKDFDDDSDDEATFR
Strand | 7-mer Z-score
UCUGGGA | -0.00833
AAAAUGU | 4.73
GUUACAG | -0.112
UGCGCCC | -0.391
UUCUCUC | -0.351
UGAUGUA | -0.246
GCGCUAU | -0.269
CGGAAUA | 0.218
AUCAAUG | -0.0573
GUCUGCC | -0.358
GCCAAUC | -0.271
GUUACUU | -0.208
AGGCGCG | -0.121
GCAUACU | -0.193
UAUUUCC | -0.369
CGAGCAC | -0.0428

Set 4 — technique: RNA Bind-n-Seq; form: RNA; medium: in vitro; tested at: 100 nM; relative to: input RNA pool; direction: higher = stronger binding
Target: RING finger protein unkempt homolog, zinc fingers 1-6, SBP tag (UNK, Homo sapiens, UniProt Q9C0B0, residues 30-357)
Chain of UniProt Q9C0B0 (30-357, looked up): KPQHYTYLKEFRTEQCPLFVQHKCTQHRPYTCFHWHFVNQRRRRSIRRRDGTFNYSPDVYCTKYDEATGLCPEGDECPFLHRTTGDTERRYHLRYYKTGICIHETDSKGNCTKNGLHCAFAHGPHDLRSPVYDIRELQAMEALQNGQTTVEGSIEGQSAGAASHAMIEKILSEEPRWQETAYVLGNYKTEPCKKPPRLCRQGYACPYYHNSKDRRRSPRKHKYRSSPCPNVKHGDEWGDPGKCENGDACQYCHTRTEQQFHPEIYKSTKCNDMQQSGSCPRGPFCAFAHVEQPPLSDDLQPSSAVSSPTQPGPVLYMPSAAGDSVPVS
Notes: RNA with constant flanks, vertebrate orthologous sites, ends assumed
All sequences stand within: GGGAGUUCUACAGUCCGACGAUC … CAACAGAGGAUUGAGCAUCA
Strand | bound/input enrichment
GCUGAGUGACUUUGGACGUCCGUGUUAUCUCCCUGUGGAGACUGCGAAGUCCCGGGCCUUUCCGUGACCCGAGGUUCCUGCUGUCAAGAUGCUGCGCCAGAUUCUCGGCCAGGCCAAGAA | 0.122 ratio
GUUGAACAUAAAUGUUUCCACUGGGUUUUGCUUAUAAGAAGAAAUGGGCCCAUGCACUUAUAUAGCUUUUUAAUAGCGUUAACCAAUGCAUUUUUAGACAUAUUUUGAUGUAUAUAUCUA | 1.35 ratio
CCCUCUGAACCCCAUAUCUUCUGUUUCAUAGUGCAGAAGUGUUCUUUUCAAUUGUAUUAUUAGUGGACUUGUUUAAUUUUAGAGAAACUUUCAGUACAGAUACUGUGAGCUUACAUGGAA | 1.71 ratio
CUACUAUAAACAACUCAGGGCAGUAUUCUCGAUAUCCUUACAGUAAUCUAAAUCAGGGAUUAGUUAACAAUACAGGGAUGAAUCAAAAUUUAGGCCUUACAAAUAAUACUCCAAUGAAUC | 1.67 ratio
UGACCACUCACUGUUAUGUCUGGAUAUCUGUAAACCUUUUUUUUUUUUUUUUUGGUUCUUAGUCCUUUUUCUUGUAUAAUUGAUGUUCUCUAAAAUUGUUAAUGUAUCACAGGGCUGACA | 0.627 ratio
CCGAAAGGCCAAAUUCCCUCCUCCCUUCUACUGCUUCUACCAACUGGAAGCACAGAAAACUAGAAUUUCAUUUAUUUUGUUUUUAAAAAAAUAUGUUGAUUUCUUGUAACAUCCAAUAGG | 0.45 ratio
UUGUUUUGUACAGGGCAUUCUCUGUACGAAUUUGUUGUGGUUAUAAAACAAUUAGCAAAACAGCUUACAUUUGUAUUUAUUUUCUAUUCCAUAUCUCUACCCCAUGUUUUUCCUCCUCAA | 0.708 ratio
CCCCAAGGGCUGGUAGAGUCGAGUCCCGUUCUUAGAGCGUUCCCUCUCCAUUUUGUGUCCCUCGGGGUGGCGUAGGGGGUGCGCGCACCCCGGCCCCGAGGCGCCAGUGCUUGUGGUCCA | 0.503 ratio
AAGUAGUUUUAAGCUUGUUUGCACAGUUCUUUUUUCCAUUGGAAAUGGAAUCCAUUGCCUUAGGUCUUUUUAAAUAGUGUAUUAUCGUUGGGGCUGGCUCUAUGCUUGAAAACCAGUUUA | 2.44 ratio
AGAUUUGGACCUUGGAGCCGAACUAGAGACUAGCAAAAGUAAAGCAGACUUGUAAAAUUAUAGUCAUAUGCAGCUGCACAACAAAAGCACCACCACUAGCAGCUGUGUUAAAGGAUUUAU | 0.596 ratio
CACACUAUAUUGUGGCAUUUAGUCAACAUGGAAGUAGACCAGCUCUGCAGAUUUGAAAUUUAGAUUUUUUUUAAUUAUGUACUGGGGACAGGUUUUUGUCGCUUUACAUUGCUUCCUAGU | 3.86 ratio

Set 5 — technique: protein-binding microarray; form: double-stranded DNA, one strand shown; medium: in vitro; tested at: 2540 nM top; notes: 60-bp whole probe; together with: salmon DNA 0.4 mg/ml; relative to: random background probes; direction: higher = stronger binding; all sequences stand within: GCCTAGCAC … GTCTTGATTCGCTTGACGCTGCTG
Target: Interferon regulatory factor 3, full length, phosphomimetic (IRF3, Homo sapiens, UniProt Q14653, residues 1-427, S386D/S396D/S398D/S402D/T404D/S405D)
Residues (chain): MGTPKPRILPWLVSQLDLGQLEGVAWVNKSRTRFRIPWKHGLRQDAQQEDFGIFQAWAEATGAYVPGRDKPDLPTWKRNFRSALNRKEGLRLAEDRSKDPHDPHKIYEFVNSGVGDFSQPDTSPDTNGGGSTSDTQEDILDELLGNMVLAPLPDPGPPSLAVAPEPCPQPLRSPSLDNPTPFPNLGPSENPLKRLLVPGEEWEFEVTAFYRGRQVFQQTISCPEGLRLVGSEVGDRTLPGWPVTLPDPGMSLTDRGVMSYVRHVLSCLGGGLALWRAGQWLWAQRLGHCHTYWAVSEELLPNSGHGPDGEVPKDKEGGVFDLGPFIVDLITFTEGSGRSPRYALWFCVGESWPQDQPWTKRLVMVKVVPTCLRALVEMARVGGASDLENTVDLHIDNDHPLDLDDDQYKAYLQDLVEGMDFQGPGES
Strand | fitted relative affinity [z-score]
TCACCTTTTCACTTTACACTGTGCTAG | 4.56
TTAGATTTCGAGTTTCGATTAGTGCTA | 3
TTAGGTCTCCATCTCCTTTAGTGCTAG | 2.77
TTAGGTCTCCGTCTCCTTTAGTGCTAG | 2.11
GACGGACCGGACTATCGGGACGTGCTA | 0.246
GACGGTATCGGGACTGGGGACGTGCTA | 1.8
GGATTGCAACCCCTCAAAAAGTGCTAG | 0.455
GACGGTTTCCTTCTCCTGCCGTGCTAG | 9.08
GACCGTTTCGGTCTCGGGACGTGCTAG | 7.77
GACGATATAAGTATCGAGACGTGCTAG | 0.313
TCAGGTATTTTTTTGTAACTGTGCTAG | 0.185
GACGAACTGGCGACTGGAGACGTGCTA | -0.461
GACGATTTCGGGTATTGAGACGTGCTA | 1.66
GACGATTTCAGTAGCGAGACGTGCTAG | 0.976
GACGATCTCAGTGTCGAGACGTGCTAG | 0.369
TTAGATATCGAGACTGGATTAGTGCTA | -0.219
TCATTATTAGTGACTCAGACTGTGCTA | 0.279
TCAAAAATGGAAACTCGTACTGTGCTA | 1.16
GACGATTCCAGTTTAGAGACGTGCTAG | 1.47
GACGCTATCGGGACTGGAGACGTGCTA | -0.0505
TTAGGTTTCGACTTTCCGTTAGTGCTA | 3.92
GACGGTTTCCTGCTGCTGACGTGCTAG | 3.22
GACGGTCTCGACTATCGGGACGTGCTA | 0.107
TCATCTTTCTGTTTTCTACTGTGCTAG | 3.26
GACGGTATCGGGTCTGGGGACGTGCTA | 2.57

Set 6 — technique: protein binding microarray; form: double-stranded DNA, one strand shown; medium: in vitro; tested at: not given; relative to: not given; direction: higher = stronger binding
Target: Histone acetyltransferase KAT6A, winged helix 2, GST fusion (KAT6A, Homo sapiens, UniProt Q92794, residues 85-181)
Notes: 8-mer, flanks averaged, mean of 2 arrays, mostly near background
Target sequence (chain): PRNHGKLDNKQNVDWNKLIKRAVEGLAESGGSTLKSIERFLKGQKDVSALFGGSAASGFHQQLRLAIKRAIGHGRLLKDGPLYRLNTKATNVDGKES
Strand | E-score
CGCGACAG | 0.129
CGAGATAA | 0.145
CAACGACC | 0.0158
ACCTGGCC | 0.0398
CTAACATC | -0.0259
GATGCTCC | 0.0405
GGTCTTCA | -0.0518
AGTTGAAA | -0.0208
ACGTGAAA | -0.105
GACAGCAA | 0.104
CGATGCGC | 0.24
GGTGTAGA | -0.086
AGCCGCCA | 0.0118
AGCTATAT | 0.0396
GAGAAGAC | 0.0638
TATTCCCA | 0.0601
CATGTCGC | -0.206
AAGGGGCC | 0.0852
GGACTGAC | -0.145
CTTGGCTC | -0.111
CAGCCAAC | -0.0419

A few entries again (set 6):
Strand | E-score
GGTCTTCA | -0.0518
CAACGACC | 0.0158
GACAGCAA | 0.104
GGACTGAC | -0.145
TATTCCCA | 0.0601
GATGCTCC | 0.0405
ACGTGAAA | -0.105
ACCTGGCC | 0.0398
CAGCCAAC | -0.0419
GGTGTAGA | -0.086
CGAGATAA | 0.145
CGCGACAG | 0.129
CTAACATC | -0.0259
AGTTGAAA | -0.0208
CTTGGCTC | -0.111
